Measurements collected from several papers.
Every numbered part comes from another study and shows a few of its results, in no order.

Set 1
Target: Histone acetyltransferase KAT6A, winged helix 2, GST fusion (KAT6A, Homo sapiens, UniProt Q92794, residues 85-181)
Technique: protein binding microarray
Form: double-stranded DNA, one strand shown
Matrix: in vitro
Tested at: not given
Notes: 8-mer, flanks averaged, mean of 2 arrays, mostly near background
Baseline: not given
Direction: higher = stronger binding
Quantity: E-score
Target sequence (chain): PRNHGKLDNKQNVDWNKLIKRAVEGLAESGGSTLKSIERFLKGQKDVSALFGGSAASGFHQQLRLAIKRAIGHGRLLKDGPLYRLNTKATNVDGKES
ACACGATA: 0.0766
AGAACGTA: 0.0165
GGGGCTCA: -0.149
AGGCAGTC: -0.0803
CCATTCCC: -0.00052
GAGACACA: -0.0613
CCATACCC: -0.00787
GAGACGCC: 0.0309
GATTCCGC: -0.00619
GCCAACCC: 0.0893
GTAGAGCA: 0.0646
ATACGCCC: -0.00214
AAGATGGG: -0.11
CGAAAGAA: -0.004
CCCAGGGC: 0.147
AGCTGGCC: -0.00707
CTAGTTTA: -0.0235
ATTAAGGA: -0.0505
AGAGATAT: -0.0283
AAGCTGAC: 0.111
TTCACGAA: 0.0284
ACCATACG: -0.161
ATAGCTTG: -0.00967
ATATTCAA: 0.0535

Set 2
Target: Interferon regulatory factor 7, full length, phosphomimetic (IRF7, Homo sapiens, UniProt Q92985, residues 1-503, S471D/S472D/S475D/S476D/S477D/S483D/S484D/S487D)
Technique: protein-binding microarray
Form: double-stranded DNA, one strand shown
Matrix: in vitro
Tested at: 2200 nM top
Notes: 60-bp whole probe
Added: salmon DNA 0.4 mg/ml
Baseline: random background probes
Direction: higher = stronger binding
Quantity: fitted relative affinity
Shared flanks, not repeated: GCCTAGCAC … GTCTTGATTCGCTTGACGCTGCTG
Target sequence (chain): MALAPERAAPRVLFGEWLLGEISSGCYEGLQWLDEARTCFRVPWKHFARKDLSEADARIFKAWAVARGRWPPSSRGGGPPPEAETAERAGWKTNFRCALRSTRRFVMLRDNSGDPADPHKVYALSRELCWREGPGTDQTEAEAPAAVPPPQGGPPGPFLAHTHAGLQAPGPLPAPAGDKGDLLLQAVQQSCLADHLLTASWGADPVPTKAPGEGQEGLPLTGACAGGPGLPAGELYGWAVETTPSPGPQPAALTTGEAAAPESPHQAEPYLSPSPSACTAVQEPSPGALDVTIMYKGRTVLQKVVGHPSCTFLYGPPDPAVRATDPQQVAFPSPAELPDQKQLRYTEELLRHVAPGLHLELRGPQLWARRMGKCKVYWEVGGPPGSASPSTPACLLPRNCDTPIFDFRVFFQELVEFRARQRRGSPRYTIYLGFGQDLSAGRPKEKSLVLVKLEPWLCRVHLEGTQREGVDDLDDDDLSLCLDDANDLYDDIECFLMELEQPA
TTAGGTCTCGGTTTCGATTAGTGCTAG: 5.52 z-score
TTAGGTATCCTTCTCCGTTAGTGCTAG: 1.06 z-score
GACGGTCGCCTTTTCCTGACGTGCTAG: 0.647 z-score
TCATGTCTTCCCCTCTCACTGTGCTAG: 1.94 z-score
TTAGGTTTCGGTTTCGGTTGGTGCTAG: 17.7 z-score
GACGGTATCGACTTTGGGGACGTGCTA: -0.0554 z-score
GACCCTGGACACTTCACGTAGTGCTAG: -0.114 z-score
GACAGTTTCGGTATCGGGACGTGCTAG: 9.51 z-score
TTAGATATCAATCTCGATTAGTGCTAG: -0.183 z-score
TTGGGTATCCTTATCCTTTAGTGCTAG: 0.752 z-score
GACGATACCAGTATCGAGACGTGCTAG: 0.405 z-score
GACGGTTTCGACACGGGGGACGTGCTA: 3.62 z-score
TCAAGTTTTCTTTTCCAACTGTGCTAG: 3.59 z-score
TTAGGTTTCTTTTTCCTTTAGTGCTAG: 4.75 z-score
TCACATTAAATTTTAATACTGTGCTAG: 0.231 z-score
TTAGATTTCGGGACTGAATTAGTGCTA: 0.581 z-score
GAGGGTTTCCTTATCCTGACGTGCTAG: 1.28 z-score
GACGAACTGAGTATCGAAACGTGCTAG: 0.124 z-score
GACGGTATCCTCCTCCTGACGTGCTAG: 1.05 z-score

Set 3
Target: Hepatocyte nuclear factor 3-alpha (Foxa1, Mus musculus, UniProt P35582, residues 1-468, full length assumed)
UniProt P35582, sequence (whole entry, looked up): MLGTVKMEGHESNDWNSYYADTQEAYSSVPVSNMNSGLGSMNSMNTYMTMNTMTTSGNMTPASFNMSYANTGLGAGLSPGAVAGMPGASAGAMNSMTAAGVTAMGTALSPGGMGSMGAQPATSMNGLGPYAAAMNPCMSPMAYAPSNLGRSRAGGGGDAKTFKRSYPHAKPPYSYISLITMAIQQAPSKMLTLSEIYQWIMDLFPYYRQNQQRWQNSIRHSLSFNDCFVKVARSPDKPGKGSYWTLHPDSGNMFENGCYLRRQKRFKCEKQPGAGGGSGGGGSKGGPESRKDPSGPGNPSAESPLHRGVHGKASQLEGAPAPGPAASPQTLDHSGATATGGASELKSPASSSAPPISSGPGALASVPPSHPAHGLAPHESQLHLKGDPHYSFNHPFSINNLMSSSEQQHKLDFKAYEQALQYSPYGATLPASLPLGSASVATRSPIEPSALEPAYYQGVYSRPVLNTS
Technique: EMSA with sequencing
Form: double-stranded DNA, one strand shown
Matrix: in vitro
Tested at: 10 and 20 nM
Notes: whole designed probe, mean of two concentrations, ends assumed
Baseline: negative control set to 0
Direction: higher = stronger binding
Quantity: normalised bound fraction
Shared flanks, not repeated: GTGAGCGGTGCCCATTGATGGGGAAC … TTTCACTGGGATCGTGGGGAC
CAGAGAGTGTTTGCAGTTGTTCATCCTAAATTACACTGTTGTTTTAGCCTGTAGAGTGCTCAGAGCTGATTAATAAACAGAAATTAAGTCACTAAATTACTTTTTGCTTCAAATCACAGTGTGCGACTCGAGTGGTTGATATCTCACTGATATTTGTGAATGCGTGGATGAGTGACTGGATCTGCTTGTGTGT: 0.138 ratio
AGAACTAGAGGGTGGTGAGTTTTGTGTGATAGAGGCGTAGAATGCAGCAGACACTGAGCATTGGAAACTTCTGGCTGCTGGCCTGTGTGATGCATGTTTACTTTGCTTTTTTTTTTTTTTTTTAATGACAAAGGAACATGCTTTTGTTTGTTTTAGGAGAAGAGGGATTGAAGGAACCAAGGGTAGCTGTGGA: 0.506 ratio
ATCTTCCCCCTCTTCCTTGCCCCACCAGCTCACCTACGGGGGTTATTTGCAGATAGGAAAATAAATAAAGCCGGCATTCGTTAACCCTCTTCTGGCGCAAACTGCTGTTTGCTCTGCATGAATCATGGTCCTTACGCGACGCCAGGCTCCGGGAGAGCAAAGCACCGTGTCAGGCGCATGATCCGGGGTGGCC: 0.348 ratio
GGTGCCTCCCCAGCCACCTCCGCCCCTGCCTGCTTCTGATTCAACAGCGCCGACCCTACAAAAACAGGGCCCGCCCATCTCCGAGGATGGCAAAGTCATCTGTGCGGGCACGCGGGCGGCCAGTCCCCGGCGGCCCGCGTGCGTCACGGGGGCGGATGCAGAGGACCAGGAAGTTCGCCGACGACGCGCCCGC: -0.0625 ratio
GTGCTCAGCAGCCTTCAACATTAGGATGTGACGCACTTGGAAGCTTGCTCCTTCCTGGTTATCAGCCAAGACAGTGTTGACAGTTGATCGTTCAGTAATCTTTATCTCTGCACATAGCGGTAAATGACACCGCAATAAATAAATGTTAGGGAGAAAATGCAGGCAAAACTTCACAATAAAAGCGAGGCATTTC: 0.0106 ratio
TGTTTTATGCAAGGTCTTAAAAGGGAAAATTTTTCCAAGTTACTGTTTATACCTGTGGTATGATAGTAATTACTATCATAATGTTTACTTTATGTTTACTTTGTAAAATGTTTACTTTTGTAAAATGTAGAACTAAAGAGTTTTTGAAGCTTATATTTTCTCTTTCAATCTAAACTTGCATGCTTCCATTTTA: 0.549 ratio
CTCCTGACCTGGGACCCCACAGAGCTGGGCCTGTCATCACATTTATGGGGCTGCAGCTGACCTGGGAACTCCCTTCCTCAGTCAGTCCACAAAAAATTACCCAGAGCCTCAGGGTGCTCAGTGACCTTTACAAAACAAAGTGCAGAGTCACGTGCCAGGGCACAGCAATCCCGGGCAAAACAGACCGAAACCC: -0.0501 ratio
CAGCAAGGAATTTATAAGAAAATGATGTTGAGAAACCATTCTATTTCTCCAAGGAGCAGAGCCACCACACATTTACACAAGGATGTTCTTGCTTGTTTACACATACAACACAGTATGCTTCTAGGTGCAGTTGCATTCCAGGCAGCCCCGAGTGGCAGTCTCCCATTTTGGCATCTGTTGGCAGGAGGTTATC: 0.318 ratio

Set 4
Target: Protein C-ets-1 (ETS1, Homo sapiens, UniProt P14921, residues 1-441, K379A, full length assumed)
UniProt P14921, sequence (whole entry, unmodified, looked up): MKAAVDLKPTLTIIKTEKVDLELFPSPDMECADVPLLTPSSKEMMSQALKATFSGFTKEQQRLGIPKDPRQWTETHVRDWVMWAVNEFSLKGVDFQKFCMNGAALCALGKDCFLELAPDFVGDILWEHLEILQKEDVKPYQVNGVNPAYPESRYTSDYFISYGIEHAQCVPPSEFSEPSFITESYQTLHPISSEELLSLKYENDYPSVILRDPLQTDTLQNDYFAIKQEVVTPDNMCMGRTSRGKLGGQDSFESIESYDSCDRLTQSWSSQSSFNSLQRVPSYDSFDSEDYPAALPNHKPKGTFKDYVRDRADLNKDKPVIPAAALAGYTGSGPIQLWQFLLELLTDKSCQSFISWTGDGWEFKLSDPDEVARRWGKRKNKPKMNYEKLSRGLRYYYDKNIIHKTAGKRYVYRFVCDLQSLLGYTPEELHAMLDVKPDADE
Technique: protein-binding microarray
Form: double-stranded DNA, one strand shown
Matrix: in vitro
Tested at: not given
Notes: k-mer, scored over probes, only values ≥0.25
Direction: higher = stronger binding
Quantity: E-score
CATACATC: 0.265
ATGTTCCG: 0.253
ATCCGGCG: 0.287
ATACAGTA: 0.27
ATTACGTA: 0.257
CCGGGATC: 0.344
CCCTCCCC: 0.268
CGCCAAAA: 0.256
ACCGACGG: 0.334
GCGGGACA: 0.27
TCAACACA: 0.287
CGACACAA: 0.27
CCGGCACC: 0.363
ATCCCCAT: 0.261
CCGGCAGG: 0.32
CCGGTAGC: 0.391
CCTTACCG: 0.289
ACCGGAAG: 0.492
CCGGTCCC: 0.289
CGTACATA: 0.272
GCCCACCC: 0.321
CGGCCGGA: 0.263
TACTACAA: 0.252
AGACCGGA: 0.333
TTATACAA: 0.261

Set 5
Target: Prothrombin, mature alpha-thrombin (F2, Homo sapiens, UniProt P00734)
Technique: aptamer microarray, sandwich
Form: DNA with 2'F-ANA
Matrix: in vitro
Tested at: 200 nM
Notes: whole 15-mer aptamer, many near background
Added: Cy3 exosite-II aptamer, 400 nM
Direction: higher = stronger binding
Quantity: mean fluorescence intensity
Strand: GGTTGGTGTGGTTGG
2'F-ANA at 3 6 7 8 9 11 13 14 15: 559 a.u.
2'F-ANA at 3 4 7 8 9 10 11 12 15: 343 a.u.
2'F-ANA at 1 3 5 6 10 11 14 15: 59 a.u.
2'F-ANA at 2 5 7 8 9 11 12 14 15: 65.7 a.u.
2'F-ANA at 3 5 6 8 9 11: 99.3 a.u.
2'F-ANA at 1 3 4 6 8 10 11 12 14: 59.9 a.u.
2'F-ANA at 3 5 7 8 9 11 14 15: 62.3 a.u.
2'F-ANA at 1 2 5 11 12 13 15: 71.7 a.u.
2'F-ANA at 2 3 4 5 6 7 9 10 13 14 15: 50.6 a.u.
2'F-ANA at 1 3 4 7 8 10 11 13 15: 58.6 a.u.
2'F-ANA at 1 3 6 9 10: 74.8 a.u.
2'F-ANA at 1 3 4 5 6 8 9 10 12 13 14: 50.9 a.u.
2'F-ANA at 5 7 8 12 15: 274 a.u.
2'F-ANA at 1 2 4 6 9 13 15: 72.7 a.u.
2'F-ANA at 2 3 9 14 15: 431 a.u.
2'F-ANA at 1 2 3 7 12 14 15: 119 a.u.
2'F-ANA at 4 5 6 7 9 12 14 15: 55.7 a.u.
2'F-ANA at 1 2 3 4 6 7 8 13 15: 124 a.u.
2'F-ANA at 1 2 4 7 9 11 14 15: 50.3 a.u.
2'F-ANA at 4 8 10 11: 88.5 a.u.
2'F-ANA at 3 5 6 8 10 13: 51.9 a.u.
2'F-ANA at 2 8 11 12 15: 660 a.u.
2'F-ANA at 1 2 3 7 9 11 13: 175 a.u.
2'F-ANA at 1 3 4 5 6 8 9 11 13 15: 58.5 a.u.
2'F-ANA at 6 7 10 13 15: 132 a.u.

A few entries again (set 2):
GACCCTGGACACTTCACGTAGTGCTAG: -0.114 z-score
GACAGTTTCGGTATCGGGACGTGCTAG: 9.51 z-score
TTAGATATCAATCTCGATTAGTGCTAG: -0.183 z-score
TTGGGTATCCTTATCCTTTAGTGCTAG: 0.752 z-score
GACGATACCAGTATCGAGACGTGCTAG: 0.405 z-score
GACGGTTTCGACACGGGGGACGTGCTA: 3.62 z-score
